Measured values gathered from unrelated publications.
A part holds a random share of what one study measured. Substitutions count along the parent as printed.

Study 1
Target: ABI1, truncated, D143A, DHFR fusion (Arabidopsis thaliana)
Technique: DHFR PCA, deep sequencing
Sample: yeast
Notes: methotrexate growth selection, single substitutions
Added: (+)-ABA 200 µM
Baseline: wild-type fitted maximum
Direction: higher = stronger binding
Parent: PYL1, truncated, DHFR fusion (Arabidopsis thaliana); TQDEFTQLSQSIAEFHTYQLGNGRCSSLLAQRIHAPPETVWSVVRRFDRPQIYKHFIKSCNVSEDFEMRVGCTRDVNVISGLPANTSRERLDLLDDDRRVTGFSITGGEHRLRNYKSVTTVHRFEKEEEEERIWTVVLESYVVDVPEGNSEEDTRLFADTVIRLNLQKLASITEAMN; partner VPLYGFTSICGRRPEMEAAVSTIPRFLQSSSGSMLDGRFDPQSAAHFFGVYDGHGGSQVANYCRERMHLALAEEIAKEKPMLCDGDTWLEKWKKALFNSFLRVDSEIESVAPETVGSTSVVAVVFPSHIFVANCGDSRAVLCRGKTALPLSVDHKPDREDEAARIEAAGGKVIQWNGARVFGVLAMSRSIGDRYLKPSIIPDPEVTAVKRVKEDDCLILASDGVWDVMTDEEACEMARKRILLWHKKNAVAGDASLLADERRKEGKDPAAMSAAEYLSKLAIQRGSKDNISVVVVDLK
Under “relative binding score”, `R32G` is recorded as 69.6%.
Under “relative binding score”, `Q10N` is recorded as 97%.
`L166H`: “relative binding score” 89.9%.
For `L20G`, “relative binding score” read 104%.
Under “relative binding score”, `S26V` is recorded as 88.7%.
`D48H` — result for “relative binding score”: 60.7%.
Under “relative binding score”, `R123V` is recorded as 86%.
For `R90K`, “relative binding score” read 103%.

Study 2
Target: Centromere-binding protein 1, full length, N-terminal tag (CBF1, Saccharomyces cerevisiae, UniProt P17106, residues 1-351)
Sequence of UniProt P17106 (whole entry, looked up): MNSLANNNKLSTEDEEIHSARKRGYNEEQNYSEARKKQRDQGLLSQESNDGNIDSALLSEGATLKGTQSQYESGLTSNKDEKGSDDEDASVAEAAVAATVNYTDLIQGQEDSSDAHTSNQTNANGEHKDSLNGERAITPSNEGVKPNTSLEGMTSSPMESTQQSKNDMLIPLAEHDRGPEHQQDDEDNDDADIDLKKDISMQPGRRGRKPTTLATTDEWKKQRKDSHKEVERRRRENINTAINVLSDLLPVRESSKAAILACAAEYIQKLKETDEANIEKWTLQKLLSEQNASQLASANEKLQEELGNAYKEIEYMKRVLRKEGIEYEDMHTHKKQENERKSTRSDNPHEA
Technique: protein-binding microarray
Molecule type: double-stranded DNA, one strand shown
Sample: in vitro
Tested at: 0.8 µM
Notes: whole 60-bp probe, no competitor
Direction: higher = stronger binding
`CTATGCACATGGACGCACGTTGTGTGTTCATATTTCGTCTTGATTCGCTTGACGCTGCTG` has a fluorescence intensity of 635 a.u.
For `GAATTCAAAGATGATCACATAAATTGCGCCCAATAGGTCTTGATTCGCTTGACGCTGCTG`, the fluorescence intensity was 510 a.u.
The fluorescence intensity of `GAACAAAAAAAGAATGGCGTGGGGTGGGGTGATTAGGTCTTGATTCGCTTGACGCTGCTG` is reported as 536 a.u.
`CTAAGGGTTTAAGTCTACATCAGGATCACCTGCTTCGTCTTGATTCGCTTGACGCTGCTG` gave a fluorescence intensity of 1000 a.u.
`CTAAACCCCCGGTATCACGCGGCACTAAAGTTGTTCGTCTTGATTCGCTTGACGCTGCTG` gave a fluorescence intensity of 785 a.u.
With `GAAAACTATCACTTACACCTGAGTGTTGTCATTTAGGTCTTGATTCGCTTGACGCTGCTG` the fluorescence intensity was 521 a.u.
The fluorescence intensity of `CTACGTTCAGGGGTCCATGTGCCTTGGACGATATTCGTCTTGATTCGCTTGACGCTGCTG` is reported as 584 a.u.
The fluorescence intensity of `CTACCATATGGATACCATGTGGTATAAGAGGGCTTCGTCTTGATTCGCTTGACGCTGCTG` is reported as 704 a.u.

Study 3
Organism: Plasmodium berghei
Action: inhibitor
Cell line: Huh-7
Strain: GFP-expressing sporozoites, liver stage
Tested at: 10 µM
Time: 24 h
Baseline: untreated control
Cn1c(=O)c2c(ncn2CC(O)CO)n(C)c1=O (centres unmarked) has an infection rate of 107%.
CC[C@H]1OC(=O)[C@H](C)[C@@H](O[C@H]2C[C@@](C)(OC)[C@@H](O)[C@H](C)O2)[C@H](C)[C@@H](O[C@@H]2O[C@H](C)C[C@H](N(C)C)[C@H]2O)[C@](C)(O)C[C@@H](C)C(=O)[C@H](C)[C@@H](O)[C@]1(C)O has an infection rate of 94.2%.
C/C=C(/C(=C/C)c1ccc(O)cc1)c1ccc(O)cc1 has an infection rate of 80.4%.

Mixed results
CNC(=O)c1cc(C(=O)N[C@H]2[C@@H]3COC[C@@H]32)cc2c1O[C@H](CF)[C@H]2c1ccccc1 gave a viability of 96.8% (normal-adjacent organoid sample D; CellTiter-Glo; 1 µM, replicate mean; baseline: DMSO).
CC(C)n1cnc(-c2ccc(F)cc2)c1-c1ncc(C(=O)Nc2ccc(N3CCN(C)CC3)cc2)[nH]1: “coronary arteriosclerosis incidence” 0% (IPF patients; 60 mg once daily, adverse event).
For CN(C)[C@H]1CCN(c2cc(-c3ccccc3)nc3ccnn23)C1, the viability was 116% (normal-adjacent organoid sample D; CellTiter-Glo; 1 µM, replicate mean; baseline: DMSO).
For COc1ccc(-c2c(Nc3ccccn3)[nH]c3c(C4=CCCCC4)c(-c4ccccc4)nn3c2=O)cc1, “AUC over dosing interval” read 124 µg·h/mL (LC-MS/MS non-compartmental; human, plasma; oral, 200 mg twice daily, cycle 1).

Some of these lines once more (study 2):
For `GAATTCAAAGATGATCACATAAATTGCGCCCAATAGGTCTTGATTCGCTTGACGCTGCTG`, the fluorescence intensity was 510 a.u.
